{"data": "Results of several laboratories", "note": "A part holds a random share of what one study measured."}
{"data": "Set 1", "target": "Centromere-binding protein 1, full length, His-tagged (CBF1, Saccharomyces cerevisiae, UniProt P17106, residues 1-351)", "method": "competition protein-binding microarray", "form": "double-stranded DNA, one strand shown", "matrix": "in vitro", "concentration": "2 µM", "setting": "whole 60-bp probe, lowest competitor level", "added": "Pho4 competitor, 0.05 µM", "direction": "higher = stronger binding", "constant ends, left off below": "… GTCTTGATTCGCTTGACGCTGCTG", "sequence of UniProt P17106 (whole entry, looked up)": "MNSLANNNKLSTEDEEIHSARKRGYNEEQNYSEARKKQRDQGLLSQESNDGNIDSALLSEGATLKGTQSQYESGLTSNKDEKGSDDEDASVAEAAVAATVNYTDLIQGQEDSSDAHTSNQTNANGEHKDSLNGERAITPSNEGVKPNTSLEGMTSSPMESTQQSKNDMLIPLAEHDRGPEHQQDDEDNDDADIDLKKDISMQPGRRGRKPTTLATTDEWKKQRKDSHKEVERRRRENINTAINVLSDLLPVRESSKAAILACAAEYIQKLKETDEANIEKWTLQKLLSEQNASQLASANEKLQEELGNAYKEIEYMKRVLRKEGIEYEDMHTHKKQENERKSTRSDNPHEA"}
{"Sequence": "ACAGCGTCGGCGGGCCACGTGCGGGAGGAGGGGCCG", "fluorescence intensity": "731 a.u."}
{"Sequence": "GTCTTGTCTCATTGGCAAGTGGGTGTCCCCACTTCA", "fluorescence intensity": "60.7 a.u."}
{"Sequence": "CCCAATCTGAGAGAGAACGTGCCGAGGCCGCCTTCA", "fluorescence intensity": "77.8 a.u."}
{"Sequence": "ATCGTTTTGTTGACCAGCATGATAAATTCTGGAGCC", "fluorescence intensity": "97.4 a.u."}
{"Sequence": "ATCTGTGGGGGCACCAGCGTGACGGGGACGGTTCTA", "fluorescence intensity": "118 a.u."}
{"Sequence": "CACCGATTTGGTAATGCCGTGATGGAACCTCGAGGA", "fluorescence intensity": "67.3 a.u."}
{"Sequence": "CTCAGTGGTTAGAGCTTCGTGCTTTTAGCAACATTC", "fluorescence intensity": "84.3 a.u."}
{"Sequence": "CATACCCAACCTTGAGATGTGGGTGAAGATATTTGT", "fluorescence intensity": "71 a.u."}
{"Sequence": "CGTCCTAGCGATTGAGTAGTGGGTGCCATGAGGAAG", "fluorescence intensity": "70 a.u."}
{"Sequence": "AGGAAACAATTGGTGAGCATGACAAACTTGTTTGGC", "fluorescence intensity": "79.8 a.u."}
{"data": "Set 2", "target": "Interferon regulatory factor 5, full length, phosphomimetic (IRF5, Homo sapiens, UniProt Q13568-2, residues 1-514, S451D/S453D/S456D/S462D)", "method": "protein-binding microarray", "form": "double-stranded DNA, one strand shown", "matrix": "in vitro", "concentration": "940 nM top", "setting": "60-bp whole probe", "added": "salmon DNA 0.4 mg/ml", "baseline": "random background probes", "direction": "higher = stronger binding", "constant ends, left off below": "GCCTAGCAC … GTCTTGATTCGCTTGACGCTGCTG"}
{"Sequence": "TTAGGAATCGGTCTCGGTTAGTGCTAG", "fitted relative affinity": "3.08 z-score"}
{"Sequence": "TTAGGACTGGGTTATCGGTTAGTGCTA", "fitted relative affinity": "-0.077 z-score"}
{"Sequence": "TTAGGACTGGGTTTCGATTAGTGCTAG", "fitted relative affinity": "6.13 z-score"}
{"Sequence": "TCACTTCTGCTTCCTCAGACTGTGCTA", "fitted relative affinity": "0.729 z-score"}
{"Sequence": "TTAGATTTCGGTATCGATTAGTGCTAG", "fitted relative affinity": "7.02 z-score"}
{"Sequence": "TCAAGTCCCGAGAATGGTACTGTGCTA", "fitted relative affinity": "-0.113 z-score"}
{"Sequence": "TTAGGACTGCTTATCCTTTCGTGCTAG", "fitted relative affinity": "-0.351 z-score"}
{"Sequence": "TTAGGTATCCTACTGCTTTCGTGCTAG", "fitted relative affinity": "0.443 z-score"}
{"Sequence": "TTAGGTTGCGACTTTCGGTTAGTGCTA", "fitted relative affinity": "3.48 z-score"}
{"Sequence": "GACGGTTTCTTTTTCCTGACGTGCTAG", "fitted relative affinity": "3.21 z-score"}
{"Sequence": "GAAGAACTGGGGACTGGAGACGTGCTA", "fitted relative affinity": "-0.184 z-score"}
{"Sequence": "CAGGAATGGCACCAGCAGGGGTGCTAG", "fitted relative affinity": "-0.765 z-score"}
{"Sequence": "GCCGATTTCGGGACTGGAGACGTGCTA", "fitted relative affinity": "0.103 z-score"}
{"data": "Set 3", "target": "Histone acetyltransferase KAT6A, winged helix 1, GST fusion (KAT6A, Homo sapiens, UniProt Q92794, residues 1-85)", "method": "protein binding microarray", "form": "double-stranded DNA, one strand shown", "matrix": "in vitro", "concentration": "not given", "setting": "8-mer, flanks averaged, mean of 2 arrays, mostly near background", "baseline": "not given", "direction": "higher = stronger binding", "Target sequence (chain)": "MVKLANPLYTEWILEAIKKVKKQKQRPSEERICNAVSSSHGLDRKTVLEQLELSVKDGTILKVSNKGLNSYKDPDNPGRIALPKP"}
{"Sequence": "CGGTGACG", "E-score": 0.0717}
{"Sequence": "CGTCAGCC", "E-score": 0.153}
{"Sequence": "CCATTGAC", "E-score": -0.0415}
{"Sequence": "AGTTTCTA", "E-score": -0.152}
{"Sequence": "AGTCCGAG", "E-score": -0.0176}
{"Sequence": "ACCCGTCC", "E-score": 0.249}
{"Sequence": "AAGTGATT", "E-score": -0.138}
{"Sequence": "CGGGCAAG", "E-score": 0.168}
{"Sequence": "CCCGGGCG", "E-score": 0.381}
{"Sequence": "GCGCGCGC", "E-score": 0.48}
{"Sequence": "AAAGAAGC", "E-score": -0.0199}
{"data": "Further values, each from its own experiment"}
{"Substance": "PhoQ, residues 284 288 289 292 302 303 SLSVQF", "target": "PhoP, residues 12 14 15 18 19 VQALL (Escherichia coli, UniProt P23836)", "test": "Sort-seq, refers to: YFP reporter", "system": "E. coli", "conditions": "PhoQ-PhoP variant library, added: 10 µM Mg2+", "scale": "baseline: high Mg2+ state, higher = stronger signaling", "quantity": "fold induction", "value": 13.6}
{"note": "A few entries again (set 1):"}
{"Sequence": "CCCAATCTGAGAGAGAACGTGCCGAGGCCGCCTTCA", "fluorescence intensity": "77.8 a.u."}
{"Sequence": "ATCGTTTTGTTGACCAGCATGATAAATTCTGGAGCC", "fluorescence intensity": "97.4 a.u."}
{"Sequence": "AGGAAACAATTGGTGAGCATGACAAACTTGTTTGGC", "fluorescence intensity": "79.8 a.u."}
{"Sequence": "CATACCCAACCTTGAGATGTGGGTGAAGATATTTGT", "fluorescence intensity": "71 a.u."}
{"Sequence": "CACCGATTTGGTAATGCCGTGATGGAACCTCGAGGA", "fluorescence intensity": "67.3 a.u."}
